Measured values gathered from unrelated publications.
Parts stem from different laboratories: compare values within a part only. Substitutions count along the parent as printed.

Set 1
Target: Ras GTPase-activating protein-binding protein 1, full length (G3BP1, Homo sapiens, UniProt Q13283)
Sequence of UniProt Q13283 (whole entry, looked up): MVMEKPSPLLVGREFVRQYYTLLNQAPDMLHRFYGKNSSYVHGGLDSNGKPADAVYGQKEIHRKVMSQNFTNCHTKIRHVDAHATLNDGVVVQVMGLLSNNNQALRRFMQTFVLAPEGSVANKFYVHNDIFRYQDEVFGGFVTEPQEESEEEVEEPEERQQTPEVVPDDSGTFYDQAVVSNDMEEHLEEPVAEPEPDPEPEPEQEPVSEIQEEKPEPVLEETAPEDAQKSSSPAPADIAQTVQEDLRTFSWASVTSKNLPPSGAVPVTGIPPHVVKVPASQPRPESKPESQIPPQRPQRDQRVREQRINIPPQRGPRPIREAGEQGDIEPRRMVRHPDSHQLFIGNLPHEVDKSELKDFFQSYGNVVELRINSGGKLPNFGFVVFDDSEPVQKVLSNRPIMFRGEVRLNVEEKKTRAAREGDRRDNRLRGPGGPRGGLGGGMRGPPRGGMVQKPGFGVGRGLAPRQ
Method: RNA Bind-n-Seq
Form: RNA
Matrix: in vitro
Concentration: 200 nM
Notes: whole 134-nt RNA, ends assumed
With: 150 mM LiCl
Reference: input library
Direction: higher = stronger binding
Each molecule: 7-deaza-guanosine replaces G
All sequences stand within: GGGAGUUCUACAGUCCGACGAUC … UGGAAUUCUCGGGUGUCAAGG
Oligonucleotide	log2 enrichment
AGUCCUGUGCUACACAUCGUAUGUACCGAAUCGGCCCCCGGCCCCCGGGCCCCCGGGGAAAGUAUUAUGUUACGCCGUUCGGAUCUGCAC	0.231
UAACUAUAGAGGAGGAUCUGAUGGAUAUGGCAGUGGACGUGGAUUUGGGGAUGGCUAUAAUGGGUAUGGAGGAGGACCUGGAGGUGGCAA	-0.348
UCCUGUGCUACACAUCGUAUGUACCGAAUCGGGGAAAAAGGGGAGGGGUUUUUUUGGGGAAAGUAUUAUGUUACGCCGUUCGGAUCUGCA	0.9
UUCCUCAAGUCCUGUGCUACACAUCGUAUGUACCGAAUCGGUGGUGGGUGGAAAGUAUUAUGUUACGCCGUUCGGAUCUGCACUUCCAGC	0.933
UCAAGUCCUGUGCUACACAUCGUAUGUACCGAAUCGGGGAAGGAAGGGAAGGGGAAAGUAUUAUGUUACGCCGUUCGGAUCUGCACUUCC	-0.0949
CACAGACAACACGCACCCACACAGACACAGAGGGAAGGGGUUGUGAUGGGGACAGGGUGCACAGCAGGGCGGGGUAGGACCCCAGCCCCU	-1.46
AAGUCCUGUGCUACACAUCGUAUGUACCGAAUCGGUUUUUUUGGAAAGGUUUUUGGAAAGUAUUAUGUUACGCCGUUCGGAUCUGCACUU	-2.18
AAGUCCUGUGCUACACAUCGUAUGUACCGAAUCGGGAAAAAAAGGGUUUGGGUGGGAAAGUAUUAUGUUACGCCGUUCGGAUCUGCACUU	-0.934
GUCCUGUGCUACACAUCGUAUGUACCGAAUCGGGGUUUGGGGAAAGGGGUUUUUGGGGAAAGUAUUAUGUUACGCCGUUCGGAUCUGCAC	-0.0687
CCUGUGCUACACAUCGUAUGUACCGAAUCGGGGUUUGGGGUUUUUUUGGGGUUUUUGGGGAAAGUAUUAUGUUACGCCGUUCGGAUCUGC	0.564
UCCUGUGCUACACAUCGUAUGUACCGAAUCGGGGUGGGGAAAAAGGGGAAAAAAAGGGGAAAGUAUUAUGUUACGCCGUUCGGAUCUGCA	-0.914

Set 2
Target: Sal-like protein 4, full length isoform A (SALL4, Homo sapiens, UniProt Q9UJQ4, residues 1-1053)
Sequence of UniProt Q9UJQ4 (whole entry, looked up): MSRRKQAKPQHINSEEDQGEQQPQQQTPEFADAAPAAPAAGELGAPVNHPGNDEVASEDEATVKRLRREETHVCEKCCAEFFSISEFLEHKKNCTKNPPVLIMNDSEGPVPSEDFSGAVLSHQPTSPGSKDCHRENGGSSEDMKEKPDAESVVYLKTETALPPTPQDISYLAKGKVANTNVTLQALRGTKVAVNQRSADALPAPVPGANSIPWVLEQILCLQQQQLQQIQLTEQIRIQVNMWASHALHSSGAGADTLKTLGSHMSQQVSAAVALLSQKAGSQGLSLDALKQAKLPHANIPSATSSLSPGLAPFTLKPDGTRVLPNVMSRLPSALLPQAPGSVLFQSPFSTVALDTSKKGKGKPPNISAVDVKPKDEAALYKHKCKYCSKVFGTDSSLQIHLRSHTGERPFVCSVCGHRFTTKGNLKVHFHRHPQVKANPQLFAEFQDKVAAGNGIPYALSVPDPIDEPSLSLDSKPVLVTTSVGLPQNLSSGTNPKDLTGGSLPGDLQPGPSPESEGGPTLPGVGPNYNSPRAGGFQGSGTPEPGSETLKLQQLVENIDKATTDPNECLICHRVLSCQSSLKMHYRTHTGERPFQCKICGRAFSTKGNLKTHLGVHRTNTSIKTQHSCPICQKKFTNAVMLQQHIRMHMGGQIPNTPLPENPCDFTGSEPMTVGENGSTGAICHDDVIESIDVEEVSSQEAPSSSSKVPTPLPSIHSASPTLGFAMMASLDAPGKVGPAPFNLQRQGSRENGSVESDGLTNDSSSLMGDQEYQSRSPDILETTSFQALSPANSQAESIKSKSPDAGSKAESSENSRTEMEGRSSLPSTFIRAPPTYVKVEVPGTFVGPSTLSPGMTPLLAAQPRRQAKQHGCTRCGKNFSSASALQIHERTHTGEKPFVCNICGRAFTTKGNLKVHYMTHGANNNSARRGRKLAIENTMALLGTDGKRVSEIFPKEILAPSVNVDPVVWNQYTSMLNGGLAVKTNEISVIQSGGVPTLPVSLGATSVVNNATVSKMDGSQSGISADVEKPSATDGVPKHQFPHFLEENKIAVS
Method: universal PBM
Form: double-stranded DNA, one strand shown
Matrix: in vitro
Concentration: 600 nM
Notes: 8-mer, flanks averaged, mean of replicates
Direction: higher = stronger binding
Oligonucleotide	E-score
ACTGCAGA	0.0411
AATAAGAG	0.216
AACGAATT	0.178
GTTCCTAA	0.0162
GCCGAAGA	-0.064
TATAACAA	0.349
GCATCAGA	0.125
ATCAGGGA	0.00315
AGCCGACT	-0.296
GCACATTA	0.19
GCCACCCC	-0.39
AGCTAGTA	0.116
CGGCAACG	-0.236
AACCGCTC	-0.157
AGCGTCTC	-0.268
ATTAAGGG	0.0641
AACGTTAC	0.0881
TCCCCCCA	-0.205
ACACTAAC	0.0626
CGCCCTAC	-0.0337
CAGGCGAC	-0.365
ATTGCCTA	0.119
GTATCGAC	0.0368
TAGGTCGA	-0.032
GCGGAGAA	-0.171

Set 3
Target: Histone acetyltransferase KAT6A, winged helix 2, GST fusion (KAT6A, Homo sapiens, UniProt Q92794, residues 85-181)
Method: protein binding microarray
Form: double-stranded DNA, one strand shown
Matrix: in vitro
Concentration: not given
Notes: 8-mer, flanks averaged, mean of 2 arrays, mostly near background
Reference: not given
Direction: higher = stronger binding
Residues (chain): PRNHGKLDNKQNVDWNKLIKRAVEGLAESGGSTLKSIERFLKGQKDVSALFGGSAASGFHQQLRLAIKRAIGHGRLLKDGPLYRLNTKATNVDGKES
Oligonucleotide	E-score
AGGCGAGG	0.217
ATCACGAA	0.0406
AAATCACA	0.0228
CAGATTTA	0.0156
CGGATAGC	0.0163
ATGAGCTG	-0.00945
CCTTGAAG	-0.0152
AGACCAGA	-0.105
AGTAGACG	0.0721
CACGAGTG	-0.0458
AAAAATTT	0.0579
GACGGGAC	-0.0195
TGGAGAAA	0.0669
GAGCTTGC	0.016
CAACGGCC	0.012
AAGGTTAC	0.0391
CGTGCCAA	-0.0272
GGAGATAC	0.0827
ACGCCGGC	0.184
AACTGGCG	0.0654
AAACCTAT	0.0541
AATCGTTC	-0.0373
ACGGACTG	-0.189
ACAGTGCT	0.18
CGCATTAC	-0.0063

Set 4
Target: CCNA2, cyclin fold, Cln2 fusion (human)
Method: yeast growth competition, sequencing
Matrix: yeast
Notes: strong parent motif
Reference: not given
Direction: higher = stronger binding
Starting sequence: CDKN1B docking peptide (human); PSACRNLFGPVDH
Substitution	normalised enrichment score
PSACRNLFGPVAH [D12A]	4.31
PLACRNLFGPVDH [S2L]	2.8
PSACRNLQGPVDH [F8Q]	0.614
PSACRNFFGPVDH [L7F]	1.1
QSACRNLFGPVDH [P1Q]	3.94
PSSCRNLFGPVDH [A3S]	2.55
PSATRNLFGPVDH [C4T]	0.863
PSACRNLDGPVDH [F8D]	-0.33
PSACCNLFGPVDH [R5C]	-0.0591
PSACRNLRGPVDH [F8R]	0.588
PSACRNLFGPVRH [D12R]	3.72
PSACRNLFGPVEH [D12E]	3.75
PSAPRNLFGPVDH [C4P]	0.839
PSVCRNLFGPVDH [A3V]	4.89
PSAERNLFGPVDH [C4E]	0.0473
PSACRNTFGPVDH [L7T]	0.0261
PSACRNLLGPVDH [F8L]	0.392
VSACRNLFGPVDH [P1V]	3.57
PQACRNLFGPVDH [S2Q]	2.84
PSACRNLFRPVDH [G9R]	0.704
PSACRNLFGCVDH [P10C]	2.76

Set 5
Target: Hepatocyte nuclear factor 3-beta, forkhead domain (FOXA2, Homo sapiens, UniProt Q9Y261, residues 142-269)
Method: protein-binding microarray
Form: double-stranded DNA, one strand shown
Matrix: in vitro
Concentration: not given
Notes: k-mer, scored over probes, only values ≥0.25
Direction: higher = stronger binding
Target sequence (chain): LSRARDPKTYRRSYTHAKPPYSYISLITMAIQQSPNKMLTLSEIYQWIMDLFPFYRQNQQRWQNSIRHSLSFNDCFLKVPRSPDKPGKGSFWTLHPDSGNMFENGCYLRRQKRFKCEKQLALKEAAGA
Oligonucleotide	E-score
AACATACA	0.354
AAACATGA	0.305
AGACAAAT	0.252
CAAACAAA	0.381
AATATCGT	0.256
ATATATTG	0.27
ATTAGGTA	0.269
ACAATACA	0.354
AGACAACA	0.29
ATACCTAA	0.254
TATCCGCA	0.302
ATATACAT	0.363
ACAACACT	0.323
TACAAGTA	0.271
ATAGTGTA	0.301
AAATAACG	0.287
TATTACCA	0.297
ACACATAA	0.416
ACATTGAT	0.276
TATAGTCA	0.352

For quick reference, copied from above (set 3):
Oligonucleotide	E-score
GGAGATAC	0.0827
AAACCTAT	0.0541
CAACGGCC	0.012
AAAAATTT	0.0579
TGGAGAAA	0.0669
CGCATTAC	-0.0063
CACGAGTG	-0.0458
CGTGCCAA	-0.0272
CCTTGAAG	-0.0152
AGACCAGA	-0.105
GAGCTTGC	0.016
ATCACGAA	0.0406
